# Assay results gathered from unrelated publications.
# Each line is one published result; not all experiments were run side by side. ± marks the error that the study gave.
# YWHAG/RELA phospho-Ser45 p65 peptide: YWHAG/RELA, phospho-Ser45 p65 peptide (Homo sapiens, UniProt P61981+Q04206)
# Chain of UniProt P61981 (whole entry, looked up): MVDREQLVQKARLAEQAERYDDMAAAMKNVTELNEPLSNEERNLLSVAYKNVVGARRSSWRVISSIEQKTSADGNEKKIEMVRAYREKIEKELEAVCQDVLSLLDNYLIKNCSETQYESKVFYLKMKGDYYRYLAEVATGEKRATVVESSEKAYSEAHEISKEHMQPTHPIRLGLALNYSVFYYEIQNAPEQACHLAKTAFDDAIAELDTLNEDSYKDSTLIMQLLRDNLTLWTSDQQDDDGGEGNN
# Chain of UniProt Q04206 (whole entry, looked up): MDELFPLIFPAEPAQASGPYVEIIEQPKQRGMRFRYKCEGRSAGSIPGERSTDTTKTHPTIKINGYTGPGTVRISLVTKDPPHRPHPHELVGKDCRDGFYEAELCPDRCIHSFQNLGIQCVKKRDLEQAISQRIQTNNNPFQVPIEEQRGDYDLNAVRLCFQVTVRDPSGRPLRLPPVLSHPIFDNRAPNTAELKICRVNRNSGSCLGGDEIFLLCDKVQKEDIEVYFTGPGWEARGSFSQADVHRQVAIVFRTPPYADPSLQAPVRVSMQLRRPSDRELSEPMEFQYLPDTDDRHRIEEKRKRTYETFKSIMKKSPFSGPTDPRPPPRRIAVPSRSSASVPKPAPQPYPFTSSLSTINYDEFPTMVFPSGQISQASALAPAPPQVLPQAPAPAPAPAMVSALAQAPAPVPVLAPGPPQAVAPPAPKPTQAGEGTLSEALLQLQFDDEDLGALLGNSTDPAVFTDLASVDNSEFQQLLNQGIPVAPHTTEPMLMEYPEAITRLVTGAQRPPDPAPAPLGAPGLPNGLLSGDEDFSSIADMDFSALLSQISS
# Chain of UniProt P49116 (whole entry, looked up): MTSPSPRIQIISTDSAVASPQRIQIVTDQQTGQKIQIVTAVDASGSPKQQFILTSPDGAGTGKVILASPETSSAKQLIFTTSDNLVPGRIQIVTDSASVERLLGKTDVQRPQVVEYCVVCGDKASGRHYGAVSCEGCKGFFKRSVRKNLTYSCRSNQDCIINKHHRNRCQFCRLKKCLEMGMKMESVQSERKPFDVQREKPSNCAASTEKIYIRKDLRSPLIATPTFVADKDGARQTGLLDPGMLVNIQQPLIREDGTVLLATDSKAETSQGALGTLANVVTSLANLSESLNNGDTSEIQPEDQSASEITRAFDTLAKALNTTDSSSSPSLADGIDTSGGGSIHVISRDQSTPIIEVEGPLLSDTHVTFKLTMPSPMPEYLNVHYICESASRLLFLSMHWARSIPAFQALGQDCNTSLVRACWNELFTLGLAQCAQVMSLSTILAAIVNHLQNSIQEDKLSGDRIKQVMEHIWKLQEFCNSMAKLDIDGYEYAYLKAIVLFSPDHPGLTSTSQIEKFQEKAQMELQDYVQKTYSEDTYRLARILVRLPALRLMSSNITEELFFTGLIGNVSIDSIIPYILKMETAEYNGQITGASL
Compound,tested on,test,conditions,scale,measurement,value
C[n+]1cc2c3c(ccc2c2ccc4cc5c(cc4c21)OCO5)OCO3,iPSC-derived cardiomyocytes,concentration-response fit,,reference: vehicle,fitted bottom MyBP-C/MYH ratio,0%
Cc1cc(Nc2ccc(NC(=O)c3ccc(Nc4ccnc5ccccc45)cc3)cc2)nc(N)n1,OCI-Ly1,,"0.5 µM, 120 h",,viability,25.2%
CN(C)c1ccc(C(=C2C=CC(=[N+](C)C)C=C2)c2ccc(N(C)C)cc2)cc1,iPSC-derived cardiomyocytes,concentration-response fit,concentration not given,reference: vehicle,fitted bottom MyBP-C level,0%
CC/C(=N\NC(=O)NCc1cccc(O)c1)c1ccc(O)c(C)c1O,SK-OV-3,"gene expression, microarray, refers to: KRT80","10 µM, 24 h",reference: DMSO,log ratio,3.59
Fc1ccc(CNc2ccc3nc(COCc4ccccc4)[nH]c3c2)cc1,sample A patient iPSC-derived NPCs,MTS,"10 µM, 24 h",reference: vehicle,viability,140 ± 4.04%
COc1cnc2cccc(N3CCc4c(cc(Cn5ccnc5C)cc4-c4cn(C)nc4C(F)(F)F)C3=O)c2c1,SW1417,"cell growth, inhibitor",120 h,,EC50,1.86 µM
O=C(/C=C/C=C/C=C/C1CCCCC1)NC1=C[C@@](O)(/C=C/C=C/C=C/C(=O)NC2=C(O)CCC2=O)[C@@H]2O[C@@H]2C1=O,HCC1954,"cell growth, CellTiter-Glo",78 h,,GI50,14.7 µM
C[C@H](CCC(=O)NCCS(=O)(=O)O)[C@H]1CC[C@H]2[C@@H]3CC[C@@H]4C[C@H](O)CC[C@]4(C)[C@H]3CC[C@]12C,rat PCK cystic cholangiocytes,cell confluence,"20 µM, 24 h",reference: untreated,proliferation increase,42%
O=C(O)c1ccnc(C(=O)O)c1,OCI-Ly1,,"0.1 µM, 120 h",,viability,195%
COc1cc(/C=C/C(=O)N2CCC=CC2=O)cc(OC)c1OC,MDA-MB-468,"quantitative RT-PCR, refers to: PRDX6","30 µM, 8 h",reference: untreated cells,mRNA level,93.7 ± 6%
CC(C)[C@H](N)C(=O)N1CCC[C@H]1B(O)O,MV4-11,"annexin V/PI flow cytometry, refers to: annexin V- PI-","2 µM, 24 h",,viable cells,65.4%
COc1ccc(-n2nc(C(C)=O)s/c2=N\N=C(/C)c2ccc(NC(=O)c3ccc(Cl)cc3)cc2)cc1,MCF7,,0.625 µM,,toxicity,88.2%
[Cl-].[Cl-].[Ru+2].c1cnc2c(c1)ccc1cccnc12.c1cnc2c(c1)ccc1cccnc12.c1csc(-c2ccc(-c3ccc(-c4ccc(-c5nc6c7cccnc7c7ncccc7c6[nH]5)s4)s3)s2)c1,SK-MEL-28,resazurin viability,"normoxia, together with: green light 523 nm",,EC50,~0.1 µM
COC(=O)c1ccc(N2CCN(C)CC2)c(NC(=O)c2cccc(OC)c2)c1,OCI-Ly1,,"0.1 µM, 120 h",,viability,190%
Cc1ccc(S(=O)(=O)Oc2ccc(NC(=O)c3cnccn3)cc2)cc1,MCF7 transfected with human P2X7R,,"10 µM, together with: Bz-ATP 100 µM",reference: Bz-ATP alone,inhibition of proliferation,19%
CCN1CCN(c2cc(N3CCN(CC)CC3)nc(NCCNc3ccnc4cc(Cl)ccc34)n2)CC1,COS-7,,"20 µM, 24 h, 0.1% DMSO, unit not given",reference: vehicle control,apoptotic cells,5.22 ± 0.95
Cc1ncsc1-c1ccc([C@H](C)NC(=O)[C@H]2C[C@H](O)CN2C(=O)[C@@H](NC(=O)CCCCCCCCCNC(=O)c2ccc3c(c2)[C@H](NC(=O)c2cc(-c4ccc(C(=O)N(C)C)c(O)c4)on2)CC3)C(C)(C)C)cc1,MV4-11,"TMT proteomics, refers to: RNASE3 protein","concentration not given, 2 h",reference: DMSO,log2 fold change,-2.36
Clc1nc(NCc2ccco2)c2[nH]cnc2n1,iPSC-derived cardiomyocytes,"RNA-seq, refers to: ASPM chr1 exon ending 197105185",unit not given,reference: DMSO minus compound,ΔPSI,0.253
COc1cccc2c(Nc3ccc4[nH]c(C(=O)N/N=C/c5ccc(SC)cc5)cc4c3)cc(C)nc12,COS-7,,"10 µM, 24 h, 0.1% DMSO, unit not given",reference: vehicle control,apoptotic cells,41.2 ± 4.63
Cc1cn([C@H]2C[C@H](O)[C@@H](CO)O2)c(=O)nc1N,OCI-Ly1,,"1 µM, 120 h",,viability,149%
O=Cc1ccc(-n2ccnc2)cc1,YWHAG/RELA phospho-Ser45 p65 peptide,"ternary complex formation, stabilizer, fluorescence anisotropy",,,EC50,> 1000 µM
O=C(/C=C/C#Cc1cccc(NS(=O)(=O)c2ccccc2)c1)NO,OCI-Ly1,,"0.5 µM, 120 h",,viability,63%
CCNC(=O)c1noc(-c2cc(C(C)C)c(O)cc2O)c1-c1ccc(CN2CCOCC2)cc1,iPSC-derived cardiomyocytes,concentration-response fit,,reference: vehicle,fitted bottom MyBP-C/MYH ratio,43.7%
Cn1cc(-c2ccc(-c3cncc(Cl)c3N3CCC4(CCNC4=O)CC3)cc2)cn1,COLO 205,"gene expression, microarray, refers to: FGFR3 mRNA","concentration not given, 6 h",reference: untreated cells,log2 fold change,1.98
CCCN1CCN(c2ccc3[nH]c(-c4ccc5[nH]c(-c6ccc(C(F)(F)F)cc6)nc5c4)nc3c2)CC1,786-0,"cell growth, NCI-60 SRB","10 µM, 48 h",,growth percent,-90.2%
Clc1ccc(N/N=C(\c2ccccc2)c2ccccn2)nc1,OCI-Ly1,,"1 µM, 120 h",,viability,0.41%
O=C(COc1cccc2c1C(=O)N(C1CCC(=O)NC1=O)C2=O)NCCOCCOCCNS(=O)(=O)Nc1cccc(-c2cn3cc(C(=O)NC4CCC4)ccc3n2)c1 (stereo not shown),MV4-11,"TMT proteomics, refers to: PGLS protein","10 µM, 4 h",reference: DMSO,log2 fold change,-0.079
COc1cc2ncnc(Nc3ccc(Oc4ccccc4)cc3C)c2cc1OC.O=C(O)C(F)(F)F,LoVo (KRAS G13D),cell viability,"concentration not given, 72 h, together with: trametinib",direction not given,Bliss synergy score,249%
CCOCC(O)COc1ccc(NC(=O)CC[S+](C)C)cc1 (stereo not shown),"Nuclear receptor subfamily 2 group C member 2, ligand-binding domain (Homo sapiens, UniProt P49116)",SPR imaging,,,Kd,0.00485 µM
CCCCc1nc(Cl)c(CO)n1Cc1ccc(-c2ccccc2-c2nn[nH]n2)cc1,human PBMC,"RNA-seq, refers to: CLEC10A mRNA","10 µg/mL, 24 h",reference: untreated control,log2 fold change,-2.09
COc1ccc(NC(=S)N/N=C/c2cccc3cc4ccccc4nc23)cc1,HeLa,annexin V/PI flow cytometry,"concentration not given, 48 h, together with: N-acetylcysteine",,early apoptotic cells,3.2 ± 0.1%
Cc1cc(-c2ccccc2)n(-c2nc(-c3ccc(Cl)cc3)c3c(NC(=O)c4ccccc4)nnc-3[nH]2)n1,786-0,NCI60 SRB,10 µM,,growth percent,97.9%
Cn1cc(Nc2nccc(-c3ccc4c(c3)CN(C3COC3)CC[C@H]4NC(=O)c3cn(C(C)(C)C)nn3)n2)cn1,mouse splenic B cells,refers to: Renin-Angiotensin signalling,"30 mg/kg, IgD-activated in vivo","reference: vehicle, direction not given",pathway activation z-score,3.74
Cc1cccc(-c2[nH]c(CNc3ccccc3F)nc2-c2ccc3ncnn3c2)n1,MM1.S,XTT,1.4 µM,reference: untreated,viability,51%
CCn1cc(-c2cc(Cn3ccnc3)cc3c2CCN([C@H](c2cc(OC)ccn2)C2CC2)C3=O)c(C(F)(F)F)n1,SNU308,cell growth,120 h,,EC50,13.7 µM
COc1cc(NC(C)CCCN)c2ncccc2c1 (stereo not shown),iPSC-derived cardiomyocytes,concentration-response fit,concentration not given,reference: vehicle,fitted bottom MyBP-C level,0%
CC(C)NCC(O)c1ccc(O)c(O)c1 (stereo not shown),mouse ventricular cardiomyocytes,,"dose not given, 0.107 s",,sarcomere length,1.68 µm
COc1cc(OC)cc(C(=O)Oc2cc(C=O)ccc2[N+](=O)[O-])c1,YWHAG/RELA phospho-Ser45 p65 peptide,"ternary complex formation, stabilizer, fluorescence anisotropy",,,EC50,> 1000 µM
NC(=O)c1cccc(N)c1,OCI-Ly1,,"0.1 µM, 120 h",,viability,82.9%
Cc1cc(Nc2ncc(Cl)c(Nc3ccccc3S(=O)(=O)C(C)C)n2)c(OC(C)C)cc1C1CCNCC1,CLB-GE,"phosphoproteomics LC-MS/MS, refers to: BCR phosphorylation","200 nM, 60 min",reference: untreated,log2 fold change,-2.21
O=C(O)CCCc1ccccc1,OCI-Ly1,,"0.1 µM, 120 h",,viability,193%
Cc1cc(Nc2ncc(Cl)c(Nc3ccccc3S(=O)(=O)C(C)C)n2)c(OC(C)C)cc1C1CCNCC1,"Ba/F3 EML4-ALK v3, no mutation",cell viability,,,Emax,99.5%
Cn1c(Nc2nc3ccc(C(F)(F)F)cc3s2)nc2cc(C(=O)NCCOCCO)ccc21,SH-SY5Y,"RNA-seq, refers to: CD274 mRNA","5 µM, 5 h",reference: untreated cells,fold change,2.16
CCn1cc(-c2cc(Cn3ccoc3=N)cc3c2CCN([C@@H](C)c2cc(OC)ccn2)C3=O)c(C(F)(F)F)n1,SNU1196,cell growth,120 h,,EC50,1.9 µM
CCCCc1oc2ccc(NS(C)(=O)=O)cc2c1C(=O)c1ccc(OCCCN(CCCC)CCCC)cc1,human embryonic stem cell aggregates,"mRNA level, microarray, refers to: FZD3","0.5 µM, 120 h","reference: untreated, up-regulated",fold change,2.1 fold
OCc1nc2ccc(NCc3ccc(C(F)(F)F)cc3)cc2[nH]1,sample A patient iPSC-derived NPCs,MTS,"10 µM, 24 h",reference: vehicle,viability,132 ± 4.28%

# A few entries again:
Compound,tested on,test,conditions,scale,measurement,value
Cc1cc(Nc2ncc(Cl)c(Nc3ccccc3S(=O)(=O)C(C)C)n2)c(OC(C)C)cc1C1CCNCC1,"Ba/F3 EML4-ALK v3, no mutation",cell viability,,,Emax,99.5%
Cc1ccc(S(=O)(=O)Oc2ccc(NC(=O)c3cnccn3)cc2)cc1,MCF7 transfected with human P2X7R,,"10 µM, together with: Bz-ATP 100 µM",reference: Bz-ATP alone,inhibition of proliferation,19%
O=C(/C=C/C=C/C=C/C1CCCCC1)NC1=C[C@@](O)(/C=C/C=C/C=C/C(=O)NC2=C(O)CCC2=O)[C@@H]2O[C@@H]2C1=O,HCC1954,"cell growth, CellTiter-Glo",78 h,,GI50,14.7 µM
